# Experimental data of several laboratories.
# Parts stem from different laboratories: compare values within a part only.
# UniProt P11388, sequence (whole entry, looked up): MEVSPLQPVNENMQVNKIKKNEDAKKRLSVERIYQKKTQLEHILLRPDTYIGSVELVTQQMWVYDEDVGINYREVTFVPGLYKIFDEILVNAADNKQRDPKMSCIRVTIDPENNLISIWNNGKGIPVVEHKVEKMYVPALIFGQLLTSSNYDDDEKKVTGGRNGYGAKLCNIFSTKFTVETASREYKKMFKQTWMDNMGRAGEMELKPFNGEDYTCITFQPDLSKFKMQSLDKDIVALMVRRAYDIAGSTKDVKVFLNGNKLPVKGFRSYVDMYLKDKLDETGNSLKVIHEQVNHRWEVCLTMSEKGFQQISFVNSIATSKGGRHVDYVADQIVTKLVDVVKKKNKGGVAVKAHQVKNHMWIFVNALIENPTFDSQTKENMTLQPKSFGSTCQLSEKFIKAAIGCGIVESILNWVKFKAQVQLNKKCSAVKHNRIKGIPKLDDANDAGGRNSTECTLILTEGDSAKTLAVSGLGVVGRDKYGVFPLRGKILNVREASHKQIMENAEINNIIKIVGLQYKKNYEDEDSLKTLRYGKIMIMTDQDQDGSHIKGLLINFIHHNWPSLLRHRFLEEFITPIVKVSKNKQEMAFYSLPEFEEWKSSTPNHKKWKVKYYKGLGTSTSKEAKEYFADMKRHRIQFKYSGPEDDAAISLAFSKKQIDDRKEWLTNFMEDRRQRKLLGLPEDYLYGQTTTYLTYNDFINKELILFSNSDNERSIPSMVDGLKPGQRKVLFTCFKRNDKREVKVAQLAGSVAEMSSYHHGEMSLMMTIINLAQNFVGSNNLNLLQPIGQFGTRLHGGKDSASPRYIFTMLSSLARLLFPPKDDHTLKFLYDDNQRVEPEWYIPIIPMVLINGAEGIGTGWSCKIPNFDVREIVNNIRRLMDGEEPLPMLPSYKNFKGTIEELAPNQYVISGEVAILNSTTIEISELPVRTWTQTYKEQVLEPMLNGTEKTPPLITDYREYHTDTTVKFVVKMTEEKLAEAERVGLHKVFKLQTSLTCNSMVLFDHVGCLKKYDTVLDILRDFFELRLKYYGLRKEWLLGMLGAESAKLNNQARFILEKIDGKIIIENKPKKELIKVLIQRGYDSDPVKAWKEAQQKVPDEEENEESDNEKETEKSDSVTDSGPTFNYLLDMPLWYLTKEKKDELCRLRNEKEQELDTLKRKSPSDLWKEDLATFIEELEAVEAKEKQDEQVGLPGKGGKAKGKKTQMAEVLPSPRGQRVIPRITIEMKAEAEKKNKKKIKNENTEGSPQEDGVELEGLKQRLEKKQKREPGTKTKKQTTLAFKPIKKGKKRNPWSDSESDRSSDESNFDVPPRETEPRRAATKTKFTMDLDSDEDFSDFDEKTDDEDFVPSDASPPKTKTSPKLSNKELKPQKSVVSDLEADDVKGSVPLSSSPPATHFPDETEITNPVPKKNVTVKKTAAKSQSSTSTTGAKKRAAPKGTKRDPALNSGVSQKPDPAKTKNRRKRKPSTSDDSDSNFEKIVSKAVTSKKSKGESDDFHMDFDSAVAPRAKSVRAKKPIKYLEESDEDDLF

# Study 1 — mode: inhibitor
# Target: Replicase polyprotein 1ab, nsp14 (rep, Severe acute respiratory syndrome coronavirus 2, UniProt P0DTD1)
SMILES,IC50 [nM]
Cc1c(S(=O)(=O)N2CCc3[nH]ncc3C2)cc(C(=O)NCc2c(F)ccc3occc23)n1C,< 0.15
COc1ccccc1CNCc1cc(S(=O)(=O)N2CCc3ccccc3C2)c(C)n1C,> 6250
Cc1c(S(=O)(=O)N2CCn3nccc3C2)cc(C(=O)NCc2c(F)ccnc2N2CCCC2)n1C,0.43
Cc1c(S(=O)(=O)N2CCC(C)CC2)cc(C(=O)NCc2cccnc2N2CCCC2)n1C,17

# Mixed results
SMILES,target or system,assay,system,conditions,how to read,endpoint,result
COC(=O)Nc1c(N)nc(-c2nn(Cc3ccccc3F)c3ncc(F)cc23)nc1N,,,"human, male, plasma","15 mg, geometric mean, added: aspirin",,AUC,8130 ng·h/mL
N#CCC1CCN(c2nc(Nc3ccc(N4CCC(O)CC4)cc3)c3c(=O)[nH]ncc3n2)CC1,,"vs placebo, Olink multiplex","human, serum","20 mg, day 15, unit not given",baseline: placebo,osteopontin level difference,-1.14
Fc1ccccc1Cc1nc(-c2nc(C(F)(F)F)n[nH]2)cn2ccnc12,,,"healthy human subjects, both sexes","oral, 10 mg, fed",,subjects with nervous system TEAEs,15.4%
COc1cc([C@@H]2c3cc4c(cc3[C@@H](O[C@@H]3O[C@@H]5CO[C@@H](C)O[C@H]5[C@H](O)[C@H]3O)[C@H]3COC(=O)[C@H]23)OCO4)cc(OC)c1O,"TOP2A (Homo sapiens, UniProt P11388)","enzyme activity, inhibitor",,25 µM,,inhibition,29.7%

# Some of these lines once more (mixed results):
SMILES,target or system,assay,system,conditions,how to read,endpoint,result
COc1cc([C@@H]2c3cc4c(cc3[C@@H](O[C@@H]3O[C@@H]5CO[C@@H](C)O[C@H]5[C@H](O)[C@H]3O)[C@H]3COC(=O)[C@H]23)OCO4)cc(OC)c1O,"TOP2A (Homo sapiens, UniProt P11388)","enzyme activity, inhibitor",,25 µM,,inhibition,29.7%
